Measurements collected from several papers.
Parts stem from different laboratories: compare values within a part only. Changes are numbered by the printed parent chain.

Study 1
Target: Sal-like protein 4, full length isoform A (SALL4, Homo sapiens, UniProt Q9UJQ4, residues 1-1053)
UniProt Q9UJQ4, sequence (whole entry, looked up): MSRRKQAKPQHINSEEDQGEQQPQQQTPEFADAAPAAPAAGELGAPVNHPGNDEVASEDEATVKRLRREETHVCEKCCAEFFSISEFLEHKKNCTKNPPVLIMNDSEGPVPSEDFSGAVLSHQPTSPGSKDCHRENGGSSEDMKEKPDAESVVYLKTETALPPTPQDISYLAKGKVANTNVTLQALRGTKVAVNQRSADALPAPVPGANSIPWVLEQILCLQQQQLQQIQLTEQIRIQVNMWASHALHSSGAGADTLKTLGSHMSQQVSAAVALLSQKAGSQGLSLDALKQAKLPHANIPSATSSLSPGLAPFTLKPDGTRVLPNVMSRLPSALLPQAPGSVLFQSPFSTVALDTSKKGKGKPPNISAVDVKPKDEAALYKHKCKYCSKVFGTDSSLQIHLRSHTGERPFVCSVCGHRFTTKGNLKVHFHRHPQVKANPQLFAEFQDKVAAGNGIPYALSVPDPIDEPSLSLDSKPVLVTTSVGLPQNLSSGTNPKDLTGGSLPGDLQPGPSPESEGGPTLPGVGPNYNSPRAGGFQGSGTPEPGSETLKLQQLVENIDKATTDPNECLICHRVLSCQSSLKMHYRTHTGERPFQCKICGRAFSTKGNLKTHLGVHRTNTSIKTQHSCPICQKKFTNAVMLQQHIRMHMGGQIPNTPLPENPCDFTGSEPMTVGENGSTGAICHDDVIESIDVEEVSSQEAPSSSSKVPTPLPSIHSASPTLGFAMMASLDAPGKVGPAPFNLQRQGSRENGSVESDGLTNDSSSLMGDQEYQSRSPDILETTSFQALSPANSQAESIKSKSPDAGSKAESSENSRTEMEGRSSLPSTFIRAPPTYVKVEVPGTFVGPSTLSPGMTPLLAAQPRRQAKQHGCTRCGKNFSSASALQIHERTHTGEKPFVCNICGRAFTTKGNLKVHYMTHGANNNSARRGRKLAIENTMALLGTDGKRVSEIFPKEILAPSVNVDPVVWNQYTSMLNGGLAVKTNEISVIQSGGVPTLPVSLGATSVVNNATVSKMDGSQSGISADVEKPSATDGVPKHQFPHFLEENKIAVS
Technique: universal PBM
Form: double-stranded DNA, one strand shown
Medium: in vitro
Tested at: 600 nM
Notes: 8-mer, flanks averaged, mean of replicates
Direction: higher = stronger binding
With `CGTCCTCC` the E-score was -0.134.
The E-score of `GAAGCTGA` is reported as -0.0362.
With `AGTACCGA` the E-score was -0.122.
For `GCGGTTCA`, the E-score was -0.243.
The E-score of `GGGTCTCA` is reported as -0.185.
For `CCCGGCCG`, the E-score was -0.361.
The E-score of `ATTCGCGG` is reported as 0.101.
`TAGGGGAA` gave an E-score of -0.0936.

Study 2
Target: Histone acetyltransferase KAT6A, winged helix 2, GST fusion (KAT6A, Homo sapiens, UniProt Q92794, residues 85-181)
Technique: protein binding microarray
Form: double-stranded DNA, one strand shown
Medium: in vitro
Tested at: not given
Notes: 8-mer, flanks averaged, mean of 2 arrays, mostly near background
Relative to: not given
Direction: higher = stronger binding
Construct (chain): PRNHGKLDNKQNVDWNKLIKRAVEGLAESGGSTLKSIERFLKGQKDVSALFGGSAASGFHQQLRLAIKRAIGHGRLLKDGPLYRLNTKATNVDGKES
`CGGACCAC` gave an E-score of 0.162.
With `GAATGAGA` the E-score was -0.0459.
`CAGAGATG` has an E-score of -0.00783.
For `CCGCGCTC`, the E-score was 0.218.
`GAGCCCGC` has an E-score of 0.125.
The E-score of `GCCGTTAC` is reported as 0.0151.
For `CCTAAGGA`, the E-score was -0.0982.
The E-score of `ATAGCAAT` is reported as -0.0107.

Study 3
Target: RING finger protein unkempt homolog, zinc fingers 1-6, GST-SBP tag (UNK, Homo sapiens, UniProt Q9C0B0, residues 30-357)
UniProt Q9C0B0, sequence (30-357, looked up): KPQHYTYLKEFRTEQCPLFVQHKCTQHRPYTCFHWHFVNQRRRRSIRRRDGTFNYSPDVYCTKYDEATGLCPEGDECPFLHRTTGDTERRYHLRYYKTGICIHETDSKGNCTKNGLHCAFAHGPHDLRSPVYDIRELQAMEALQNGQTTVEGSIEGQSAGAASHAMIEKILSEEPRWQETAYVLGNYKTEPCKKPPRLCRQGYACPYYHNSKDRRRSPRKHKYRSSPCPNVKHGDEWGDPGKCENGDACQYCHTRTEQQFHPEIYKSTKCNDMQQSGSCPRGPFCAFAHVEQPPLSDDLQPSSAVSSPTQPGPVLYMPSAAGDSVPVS
Technique: RNA Bind-n-Seq
Form: RNA
Medium: in vitro
Tested at: not given
Notes: RNA with constant flanks, human and mouse sites, ends assumed
Relative to: input RNA pool
Direction: higher = stronger binding
`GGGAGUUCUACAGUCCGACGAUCACUGUGGCAUAUACUGAAAAGAAAAUGACCAGUGGCAAGAUCAAGAAAUUUAUUCAGGAUAGCAUUUUUGGUCUCUGUCCUCAUAUGACGGAAGAUAAUAAAGAUUUGAUACAAGGCAAGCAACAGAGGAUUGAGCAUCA` has a bound/input enrichment of 0.966 ratio.
The bound/input enrichment of `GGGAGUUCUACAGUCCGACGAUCGGGCAGUUUGCUUUCCAUGUUGGUCUUCCUGCAAAAUCUGGAGUUGCUGGGGGCAUUCUUUUAGUUGUCCCCAAUGUUAUGGGUAUGAUGUGCUGGUCUCCUCCUCUGGAUAAGAUGGGCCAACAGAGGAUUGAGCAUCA` is reported as 0.535 ratio.
With `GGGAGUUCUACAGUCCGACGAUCGAGGUGGGGGCGCUGCGGGCGCGUGCGCGCCGGCCGCCUUCCCGUUGUCGCCCGCGUUCUUGCCGUCCCGGCAUACGUCGGCGCGCGCCUGCGCCUGCAUCCGGCUUCGGACGCUUGCGACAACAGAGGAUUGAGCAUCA` the bound/input enrichment was 0.394 ratio.
`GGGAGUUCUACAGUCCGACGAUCAAGUGUGAAUGCAGAAGCAAAUAUUGUCUGCCCUGUUAAACUUGGUGCCCAUUAACAGUGUUUACACUGUUCAUCGUGCCUGUUAAUGUAGUUUUAGUUACUGGAGCUUUUUUAAGACUACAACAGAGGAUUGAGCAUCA` has a bound/input enrichment of 0.387 ratio.
`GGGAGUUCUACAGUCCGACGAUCGUGCAGGAUCCGUGCUUUGCCCAAGGAGAUGGUCUCAUUAAGGGUGAACCCUUUGUCCCUCGUGGAAAUCAUUCUUCAUGUAGUUAGACAGAUGACUGAUCCUAAUGUGGCUCUUACUUUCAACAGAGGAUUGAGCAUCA` gave a bound/input enrichment of 0.391 ratio.
The bound/input enrichment of `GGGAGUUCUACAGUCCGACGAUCGGCAAGGCUGCCGUUGUGUCCGAGGCACAGGACAGCCAGGUCACAAGCACCAAGAGUAAGUCCUCAGCUGAGGUCAAGUUCGCCAUUAAAAGGACUCUGGUAGGGCCCCGGGGGAGCAGCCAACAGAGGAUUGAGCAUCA` is reported as 0.141 ratio.
The bound/input enrichment of `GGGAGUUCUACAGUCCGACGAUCCCUUUGGCAGAAAUUUAUGAGCAACACGUCACUAAAGUGAAUGAAGAGGUAGCCAAACUUCGUCGGCGUCUCAUGGAACUGAUCAGCUUAGUUCAAGAAGUGGAAAGGAAUGUAGAAGCUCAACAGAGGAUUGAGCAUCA` is reported as 0.82 ratio.
The bound/input enrichment of `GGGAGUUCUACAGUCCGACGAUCUUUUCCUCUUCUUCCUCAUCCUCCUCUGGACCUAGGACUUUCUACCCUCGCCAGGGCGCCACUAGCAAAUAUCUGAUUGGAUGGAAAAAGCCAGAAGGAACCAUUAACUCCGUGGGAUUUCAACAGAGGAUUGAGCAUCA` is reported as 1.67 ratio.

Further values, each from its own experiment
Parent: PafA, mature enzyme, eGFP fusion (Elizabethkingia meningoseptica, UniProt Q9KJX5); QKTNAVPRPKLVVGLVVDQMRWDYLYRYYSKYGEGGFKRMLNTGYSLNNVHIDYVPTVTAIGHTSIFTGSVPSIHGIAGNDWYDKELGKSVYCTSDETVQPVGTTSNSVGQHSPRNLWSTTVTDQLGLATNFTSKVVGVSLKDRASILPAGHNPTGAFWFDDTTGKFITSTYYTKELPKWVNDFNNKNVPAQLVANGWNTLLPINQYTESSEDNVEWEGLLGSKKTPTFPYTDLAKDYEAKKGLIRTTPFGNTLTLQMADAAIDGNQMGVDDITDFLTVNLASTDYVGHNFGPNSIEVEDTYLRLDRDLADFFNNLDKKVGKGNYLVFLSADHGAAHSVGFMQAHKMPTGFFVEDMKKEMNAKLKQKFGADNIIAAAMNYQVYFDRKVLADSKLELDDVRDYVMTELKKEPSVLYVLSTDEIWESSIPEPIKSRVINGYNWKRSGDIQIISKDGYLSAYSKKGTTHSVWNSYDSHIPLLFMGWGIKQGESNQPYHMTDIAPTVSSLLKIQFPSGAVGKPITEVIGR
`D311V`: “phosphate dissociation constant” 602 µM (inorganic phosphate, free oxyanion; microfluidic competitive inhibition; in vitro, cell-free expressed; not given, derived from inhibition constants, unchanged parent 615000 nM; lower = stronger binding).

Some of these lines once more (study 3):
`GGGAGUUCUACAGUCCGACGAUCGUGCAGGAUCCGUGCUUUGCCCAAGGAGAUGGUCUCAUUAAGGGUGAACCCUUUGUCCCUCGUGGAAAUCAUUCUUCAUGUAGUUAGACAGAUGACUGAUCCUAAUGUGGCUCUUACUUUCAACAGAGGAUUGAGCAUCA` gave a bound/input enrichment of 0.391 ratio.
With `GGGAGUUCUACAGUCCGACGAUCGAGGUGGGGGCGCUGCGGGCGCGUGCGCGCCGGCCGCCUUCCCGUUGUCGCCCGCGUUCUUGCCGUCCCGGCAUACGUCGGCGCGCGCCUGCGCCUGCAUCCGGCUUCGGACGCUUGCGACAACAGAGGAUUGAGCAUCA` the bound/input enrichment was 0.394 ratio.
